Results of several laboratories.
“And” joins repeats or separate records; there may be more than shown. ± marks the error that the study gave.
TDP1: Tyrosyl-DNA phosphodiesterase 1 (TDP1, Homo sapiens, UniProt Q9NUW8)
UniProt Q9NUW8, sequence (whole entry, looked up): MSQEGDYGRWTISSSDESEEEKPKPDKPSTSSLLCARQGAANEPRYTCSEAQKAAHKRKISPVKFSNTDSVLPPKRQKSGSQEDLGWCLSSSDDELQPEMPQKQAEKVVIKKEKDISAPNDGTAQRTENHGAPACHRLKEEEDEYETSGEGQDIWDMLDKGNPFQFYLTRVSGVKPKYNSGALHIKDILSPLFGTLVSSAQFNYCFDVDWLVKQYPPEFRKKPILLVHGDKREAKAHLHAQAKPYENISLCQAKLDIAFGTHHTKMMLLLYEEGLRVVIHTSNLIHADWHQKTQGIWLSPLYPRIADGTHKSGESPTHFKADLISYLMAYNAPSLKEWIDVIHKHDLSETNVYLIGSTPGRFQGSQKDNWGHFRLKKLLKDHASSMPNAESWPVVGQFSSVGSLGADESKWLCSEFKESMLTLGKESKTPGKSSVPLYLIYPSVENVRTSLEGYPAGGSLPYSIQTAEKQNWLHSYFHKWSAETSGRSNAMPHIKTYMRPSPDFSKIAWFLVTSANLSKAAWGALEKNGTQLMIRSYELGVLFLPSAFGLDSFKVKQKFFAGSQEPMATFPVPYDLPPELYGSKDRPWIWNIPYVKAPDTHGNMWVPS

Compound	target or system	test	system	setting	scale	measurement	value
Cn1c(-c2ccc(C=NOCc3ccc(-c4nc5cc(-c6ccccc6)ccn5c4Nc4ccc(C(=O)O)cc4)cc3)s2)nc2ccccc21	TDP1	enzyme activity, inhibitor	–	100 µM	–	inhibition	85.4%
CC(C)(C)NCC(SS(=O)(=O)O)c1ccccc1 (centres unmarked)	–	–	Swiss Webster mice, Schistosoma mansoni-infected	400 mg/kg single dose on day 42 post-infection, perfusion day 56 post-infection	baseline: vehicle	body weight decrease	-4.74%
O=C(OCc1cccc(O)c1O)c1ccc(O)c(CO)c1	–	–	C57BL/6J mice, wild type	intraperitoneal, 2.5 mg/kg/day, day 14, saline infusion control	–	body weight	33.3 ± 1.3 g
CCCCNC(CCCC)CSS(=O)(=O)O (centres unmarked)	–	–	Swiss Webster mice, Schistosoma mansoni infected	100 mg/kg	baseline: vehicle control	body weight decrease	13%
O=C1NC(=O)/C(=C/c2ccc3ncnc(N4CCC(F)CC4)c3n2)S1	–	–	NSG mice	dose not given, day 2	–	body weight	22.7 g and 26.8 g and 22.6 g and 25 g
Cc1cnc2nc1Nc1cccc(c1)COC/C=C/COCc1cc(ccc1OCCN1CCOCC1)N2	–	–	BALB/c mice, rhEPO-induced polycythemia	75 mg/kg, day 5	–	body weight	19.4 g and 19 g and 20.9 g and 17.6 g and 18.3 g
COc1ccc(CNc2nc([C@H]3CC[C@H](C(=O)O)CC3)nc3sc4ccccc4c23)cc1Cl	–	–	NSG mice	dose not given, day 5	–	body weight	21.9 g and 21.1 g and 19.6 g
COc1cc(N2CCN(C(=O)C3CCCN3)CC2)ccc1Nc1ncc(Cl)c(Nc2ccccc2P(C)(C)=O)n1 (centres unmarked)	–	–	nude mice, NCI-H3122 xenograft	intraperitoneal, 10 mg/kg every other day, day 15	–	body weight	25.7 g and 28.5 g and 23.9 g and 25.6 g and 22.7 g
CC(=O)N1CCN(C(=O)c2ccc(Nc3nccc(-c4ccc(Cl)cc4)n3)cc2)CC1	–	–	NSG mice	dose not given, day 5	–	body weight	26.2 g and 25.3 g and 24.3 g
CCCCC(CSS(=O)(=O)O)NCC(C)C (centres unmarked)	–	–	Swiss Webster mice, Schistosoma mansoni infected	100 mg/kg	baseline: vehicle control	body weight decrease	7%
N#Cc1cccc(-n2cccc2C=NOCc2ccc(-c3nc4cc(-c5ccccc5)ccn4c3Nc3ccc(C(=O)O)cc3)cc2)c1	TDP1	enzyme activity, inhibitor	–	100 µM, unpurified compound	–	inhibition	39.8%

Some of these lines once more:
Compound	target or system	test	system	setting	scale	measurement	value
O=C1NC(=O)/C(=C/c2ccc3ncnc(N4CCC(F)CC4)c3n2)S1	–	–	NSG mice	dose not given, day 2	–	body weight	22.7 g and 26.8 g and 22.6 g and 25 g
